Published values pooled from the literature.
Values joined by “and” are separate records of one study, mostly repeats; a detail may differ.
Target: Coagulation factor X (F10, Homo sapiens, UniProt P00742)
Sequence of UniProt P00742 (whole entry, looked up): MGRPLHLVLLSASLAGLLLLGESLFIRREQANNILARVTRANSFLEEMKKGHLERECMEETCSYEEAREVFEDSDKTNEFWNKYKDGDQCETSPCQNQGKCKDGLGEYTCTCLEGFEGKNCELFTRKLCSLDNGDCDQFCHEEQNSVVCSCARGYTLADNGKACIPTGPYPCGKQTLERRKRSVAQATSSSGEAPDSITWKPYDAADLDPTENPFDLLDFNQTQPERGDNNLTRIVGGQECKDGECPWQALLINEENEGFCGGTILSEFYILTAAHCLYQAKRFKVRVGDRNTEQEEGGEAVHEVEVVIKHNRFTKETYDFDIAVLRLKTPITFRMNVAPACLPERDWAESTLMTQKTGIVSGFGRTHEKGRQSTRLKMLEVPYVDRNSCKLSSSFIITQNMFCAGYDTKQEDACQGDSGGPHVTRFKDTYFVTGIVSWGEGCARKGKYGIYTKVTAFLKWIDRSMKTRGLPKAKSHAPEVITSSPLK
Effect on: enzyme activity
Action: inhibitor

| SMILES | method | pH | measurement | result |
| --- | --- | --- | --- | --- |
| CN(C)C(=O)[C@H]1CC[C@H](NC(=O)C(=O)Nc2ccc(Cl)cn2)[C@H](NC(=O)c2nc3c(s2)CNCC3)C1 | – | – | IC50 | 0.0069 µM |
| O=C1CC(c2ccc(O)cc2)Oc2cc(O)cc(OC3OC(CO)C(O)C(O)C3O)c21 (stereo not shown) | absorbance | – | IC50 | 12.5 µM |
| COc1ccc(NC(=O)c2ccc(N(C)C(C)=N)cc2)c(C(=O)Nc2ccc(Cl)cn2)c1 | absorbance | – | IC50 | 0.001 µM |
| CC(C)CCC[C@@H](C)[C@H]1CC[C@H]2[C@@H]3CC=C4C[C@@H](OS(=O)(=O)O)CC[C@]4(C)[C@H]3CC[C@]12C | absorbance | pH 7.4 | IC50 | 249 µM |
| CNC(=O)N(C)c1ccc(C(=O)Nc2ccc(C)cc2C(=O)Nc2ccc(Cl)cn2)c(F)c1 | absorbance | – | IC50 | 0.00025 µM |
| CNC(=O)C1CCC(NC(=O)C(=O)Nc2ccc(Cl)cn2)C(NC(=O)c2nc3c(s2)CN(C)CC3)C1 (stereo not shown) | – | – | IC50 | 0.0027 µM |
| O=C(Nc1ccc(C(=O)Nc2ccc(C(=O)Nc3ccc(S(=O)(=O)O)c4cc(S(=O)(=O)O)cc(S(=O)(=O)O)c34)cc2)cc1)Nc1ccc(C(=O)Nc2ccc(C(=O)Nc3ccc(S(=O)(=O)O)c4cc(S(=O)(=O)O)cc(S(=O)(=O)O)c34)cc2)cc1 | absorbance | pH 7.4 | IC50 | ~49 µM and 48.6 µM |
| CNC(=O)N(C)c1ccc(C(=O)Nc2ccc(OC)cc2C(=O)Nc2ccc(Cl)cn2)cc1 | absorbance | – | IC50 | 0.00025 µM |
| Cc1ccc(C(=O)Nc2ccc(CP(=O)(O)O)cc2CP(=O)(O)O)cc1NC(=O)c1cccc(NC(=O)Nc2cccc(C(=O)Nc3cc(C(=O)Nc4ccc(CP(=O)(O)O)cc4CP(=O)(O)O)ccc3C)c2)c1 | absorbance | – | IC50 | > 100 µM |
| Cc1ccc(O)c2c3c(nn12)CCC(C)(NC(=O)c1ccc(-n2cnc4cc(C(=O)O)ccc42)cc1Cl)C3 (stereo not shown) | – | – | Ki | 0.489 µM |

Excerpt of the above:
| SMILES | method | pH | measurement | result |
| --- | --- | --- | --- | --- |
| CNC(=O)N(C)c1ccc(C(=O)Nc2ccc(OC)cc2C(=O)Nc2ccc(Cl)cn2)cc1 | absorbance | – | IC50 | 0.00025 µM |
